Measured values collected from several papers.
Each line is one published result; not all experiments were run side by side. ± gives the spread as reported.

CC(=O)O[C@H]1C(=O)[C@@]2(C)[C@H]([C@H](OC(=O)c3ccccc3)[C@]3(O)C[C@H](OC(=O)[C@H](O)[C@@H](NC(=O)c4ccccc4)c4ccccc4)C(C)=C1C3(C)C)[C@]1(OC(C)=O)CO[C@@H]1C[C@@H]2O
AUC(0-inf) (human, plasma; intravenous, 175 mg/m², cycle 1, no ritonavir, together with: carboplatin): 22.8 ± 8.1 µM·h

COc1cc2ncnc(Nc3ccc(F)c(Cl)c3)c2cc1OCCCN1CCOCC1
AUC(0-inf) (human, plasma; oral, 250 mg, together with: vorinostat 400 mg): 0.00954 ± 0.00806 µg·h/mL

C/C(=C\c1csc(C)n1)[C@@H]1C[C@@H]2O[C@]2(C)CCC[C@H](C)[C@H](O)[C@@H](C)C(=O)C(C)(C)[C@@H](O)CC(=O)N1
AUC(0-inf) (LC-MS/MS; human, plasma; intravenous infusion, 70 mg, 3 h infusion): 2.49 µg·h/mL

CN[C@@H]1COc2c(S(=O)(=O)NC(=O)Nc3c4c(cc5c3CCC5)CCC4)cnn2C1
AUC(0-inf) (human; oral, 600 mg, fasted, geometric LS mean): 170 µg·h/mL

CC[C@H](C)[C@H](NC(=O)[C@H](CCC(=O)O)NC(=O)[C@H](CO)NC(=O)[C@@H](NC(=O)[C@@H](N)CO)C(C)C)C(=O)N[C@@H](CCC(N)=O)C(=O)N[C@@H](CC(C)C)C(=O)N[C@@H](CCSC)C(=O)N[C@@H](Cc1cnc[nH]1)C(=O)N[C@@H](CC(N)=O)C(=O)N[C@@H](CC(C)C)C(=O)NCC(=O)N[C@@H](CCCCN)C(=O)N[C@@H](Cc1cnc[nH]1)C(=O)N[C@@H](CC(C)C)C(=O)N[C@@H](CC(N)=O)C(=O)N[C@@H](CO)C(=O)N[C@@H](CCSC)C(=O)N[C@@H](CCC(=O)O)C(=O)N[C@@H](CCCN=C(N)N)C(=O)N[C@H](C(=O)N[C@@H](CCC(=O)O)C(=O)N[C@@H](Cc1c[nH]c2ccccc12)C(=O)N[C@@H](CC(C)C)C(=O)N[C@@H](CCCN=C(N)N)C(=O)N[C@@H](CCCCN)C(=O)N[C@@H](CCCCN)C(=O)N[C@@H](CC(C)C)C(=O)N[C@@H](CCC(N)=O)C(=O)N[C@@H](CC(=O)O)C(=O)N[C@H](C(=O)N[C@@H](Cc1cnc[nH]1)C(=O)N[C@@H](CC(N)=O)C(=O)N[C@@H](Cc1ccccc1)C(=O)O)C(C)C)C(C)C
AUC(0-inf) (immunoradiometric; human, plasma; subcutaneous, 56.5 µg once weekly, day 1): 0.00121 ± 0.00022 µg·h/mL

CC(=O)Nc1ccc(OS(=O)(=O)O)cc1
AUC(0-inf) (healthy human volunteers; dose not given, day 1, acetaminophen alone): 25.1 µg·h/mL

C=CC(=O)N1C[C@H](Nc2ncnc3[nH]ccc23)CC[C@@H]1C
AUC(0-inf) (healthy human, plasma; oral, 50 mg single dose, together with: no rifampicin): 0.449 µg·h/mL

CN1CC[C@H](c2c(O)cc(O)c3c(=O)cc(-c4ccccc4Cl)oc23)[C@H](O)C1
AUC(0-inf) (human patients, plasma; intravenous, 40 to 105 mg/m^2, range among patients): 4.31 to 32.2 µM·h

CCc1nc(C(N)=O)c(Nc2ccc(N3CCC(N4CCN(C)CC4)CC3)c(OC)c2)nc1NC1CCOCC1
AUC(0-inf) (human, moderate hepatic impairment, plasma; oral, 10 mg, single dose, fasted, geometric LS mean): 0.337 µg·h/mL

CCCS(=O)(=O)N[C@H]1C[C@@H](N(C)c2ncnc3[nH]ccc23)C1
AUC(0-inf) (humans, mild hepatic impairment; oral, 200 mg single): 7.45 µg·h/mL

Cc1ccc(C(=O)NC2CC2)cc1-n1ncc(C(=O)c2cccc(C#N)c2)c1N
AUC(0-inf) (human, plasma; oral, 14 mg, single dose alone, geometric mean): 5.95 µg·h/mL

C=CC[C@@H]1/C=C(\C)C[C@H](C)C[C@H](OC)[C@H]2O[C@@](O)(C(=O)C(=O)N3CCCC[C@H]3C(=O)O[C@H](/C(C)=C/[C@@H]3CC[C@@H](O)[C@H](OC)C3)[C@H](C)[C@@H](O)CC1=O)[C@H](C)C[C@@H]2OC
AUC(0-inf) (healthy human subjects, whole blood; oral, 5 mg single dose, arithmetic mean, together with: isavuconazole 200 mg once daily after loading): 0.695 µg·h/mL

NCCCS(=O)(=O)O
AUC(0-inf) (human, plasma; oral, 100 mg loose-filled capsule, single dose): 3.33 ± 1.37 µg·h/mL

CC(=O)O[C@H]1C(=O)[C@@]2(C)[C@H]([C@H](OC(=O)c3ccccc3)[C@]3(O)C[C@H](OC(=O)[C@H](O)[C@@H](NC(=O)c4ccccc4)c4ccccc4)C(C)=C1C3(C)C)[C@]1(OC(C)=O)CO[C@@H]1C[C@@H]2O
AUC(0-inf) (human patients, plasma; intravenous, 80 mg/m^2, day 8, geometric mean, together with: onalespib 150 mg/m^2): 6.5 ± 0.575 µM·h

CCOc1cc([C@@H](CS(C)(=O)=O)N2C(=O)c3cccc(NC(C)=O)c3C2=O)ccc1O[C@@H]1O[C@H](C(=O)O)[C@@H](O)[C@H](O)[C@H]1O
AUC(0-inf) (healthy human controls, plasma; oral, 30 mg apremilast, matched to mild impairment): 3.97 µg·h/mL

O=C1NC(=O)C(Cc2ccc(OCCNc3ccccn3)cc2)S1 (centres unmarked)
AUC(0-inf) (human, plasma; oral, 4 mg rosiglitazone alone, day 1, metabolite, geometric mean): 2190 µg·h/mL

CN(C)[C@@H](CCOc1cccc2ccccc12)c1ccccc1
AUC(0-inf) (healthy male humans, plasma; oral, 60 mg, together with: udenafil 200 mg): 2.62 ± 1.25 µg·h/mL

Cc1ccc(NC(=O)c2ccc(CN3CCN(C)CC3)cc2)cc1Nc1nccc(-c2cncc(-c3oncc3C)c2)n1
AUC(0-inf) (older healthy human adults, plasma; oral, 175 mg single dose, fed, mean): 172 µg·h/mL

C/C=C1\NC(=O)[C@H]2CSSCC/C=C/[C@H](CC(=O)N[C@H](C(C)C)C(=O)N2)OC(=O)[C@H](C(C)C)NC1=O
AUC(0-inf) (human, plasma; i.v., 8 mg/m^2): 2 ± 1.26 µg·h/mL

CN(Cc1cnc2nc(N)nc(N)c2n1)c1ccc(C(=O)N[C@@H](CCC(=O)O)C(=O)O)cc1
AUC(0-inf) (human, plasma; oral, 12.5 mg, day 1, alone): 2.36 µg·h/mL

CC(=O)O[C@H]1C(=O)[C@@]2(C)[C@H]([C@H](OC(=O)c3ccccc3)[C@]3(O)C[C@H](OC(=O)[C@H](O)[C@@H](NC(=O)c4ccccc4)c4ccccc4)C(C)=C1C3(C)C)[C@]1(OC(C)=O)CO[C@@H]1C[C@@H]2O
AUC(0-inf) (human patients on no protease inhibitor, plasma; iv, 100 mg/m^2 over 3 h, cycle 1): 2.9 ± 0.7 µM·h

O=C(c1nc2n(n1)[C@H](c1ccccc1)C[C@@H]2F)C1CC1
AUC(0-inf) (humans, plasma; oral, 75 mg single dose, high-fat meal): 13 µg·h/mL

NC1(c2ccc(-c3nc4ccn5c(=O)[nH]nc5c4cc3-c3ccccc3)cc2)CCC1
AUC(0-inf) (human patients, plasma; oral, 135 mg, alone, expansion): 13.4 ± 3.73 µg·h/mL

C=CC(=O)Nc1cc(Nc2ncc(C(=O)OC(C)C)c(-c3cn(C)c4ccccc34)n2)c(OC)cc1N(C)CCN(C)C
AUC(0-inf) (human, plasma; oral, 160 mg, geometric mean, alone): 1.51 µg·h/mL

CNC(=O)c1c(C)oc2cc(Oc3ncnc4cc(OC)c(OC)cc34)ccc12
AUC(0-inf) (human, plasma; oral, 5 mg, fed, high-fat meal): 5.29 µg·h/mL

C=CC(=O)Nc1cc(Nc2ncc(C(=O)OC(C)C)c(-c3cn(C)c4ccccc34)n2)c(OC)cc1N(C)CCN(C)C
AUC(0-inf) (human, fasted; oral, 40 mg single dose, geometric mean): 0.16 µg·h/mL

CCCC[C@H](NC(C)=O)C(=O)N[C@H]1CCC(=O)NC[C@@H](C(=O)N[C@@H](Cc2c[nH]c3ccccc23)C(N)=O)NC(=O)[C@H](CCCNC(=N)N)NC(=O)[C@@H](Cc2ccccc2)NC(=O)[C@H](Cc2c[nH]cn2)NC1=O
AUC(0-inf) (healthy human volunteers, plasma; subcutaneous, 3.0 mg once daily, day 7): 0.202 µg·h/mL

CCN1CCN(Cc2ccc(Nc3ncc(F)c(-c4cc(F)c5nc(CO)n(C(C)C)c5c4)n3)nc2)CC1
AUC(0-inf) (human patients; oral, 150 mg single, geometric mean): 2.3 µg·h/mL

COc1cc2ncnc(Nc3ccc(F)c(Cl)c3)c2cc1NC(=O)/C=C/CN1CCCCC1
AUC(0-inf) (human, normal hepatic function (Child-Pugh), plasma; single dose, geometric mean, total drug): 0.805 µg·h/mL

CCC(CC)O[C@@H]1C=C(C(=O)O)C[C@H](N)[C@H]1NC(C)=O
AUC(0-inf) (healthy Indian human, plasma; oral, 75 mg oseltamivir phosphate single, test capsule fed): 3.86 ± 0.673 µg·h/mL

COc1cc(Nc2ncc3c(n2)-c2ccc(Cl)cc2C(c2c(F)cccc2OC)=NC3)ccc1C(=O)O
AUC(0-inf) (human, plasma; oral, 50 mg single, fed): 24.9 µM·h

CNC(=O)c1ccc(-c2cnc3ncc(Cc4ccc5ncccc5c4)n3n2)cc1F
AUC(0-inf) (healthy human subjects, plasma; oral, 200 mg, arithmetic mean, alone): 5.5 µg·h/mL

CC#CC(=O)NCCCC(=O)c1nc(-c2ccc(C(=O)Nc3ccccn3)cc2)c2c(N)nccn12
AUC(0-inf) (human, severe hepatic impairment, plasma; oral, 50 mg acalabrutinib, single, geometric mean): 0.782 µg·h/mL

O=c1[nH]c(=O)c(Cc2cccc(C(F)(F)F)c2)c([C@H]2CC[C@H](c3ccccc3)CC2)[nH]1
AUC(0-inf) (human, fasted, plasma; oral, 900 mg single dose, geometric mean): 7.64 µg·h/mL

CC(C)NC[C@@H](C(=O)N1CCN(c2ncnc3c2[C@H](C)C[C@H]3O)CC1)c1ccc(Cl)cc1
AUC(0-inf) (human, matched normal hepatic function (Child-Pugh), plasma; oral, 100 mg single, reference geometric mean, vs Severe): 0.309 µg·h/mL

CCOc1cc([C@@H](CS(C)(=O)=O)N2C(=O)c3cccc(NC(C)=O)c3C2=O)ccc1OC
AUC(0-inf) (healthy human, both sexes, plasma; oral, 30 mg single dose, without rifampicin): 3.12 µg·h/mL

O=C(/C=C/c1cccc(S(=O)(=O)Nc2ccccc2)c1)NO
AUC(0-inf) (human mild liver dysfunction, plasma; intravenous, 400 mg/m^2, 30 min infusion, cycle 1 day -7): 14.3 µg·h/mL

NS(=O)(=O)OC[C@@H]1C[C@@H](n2ccc3c(N[C@H]4CCc5ccccc54)ncnc32)C[C@@H]1O
AUC(0-inf) (human; iv, 8 mg/m^2, day 8, geometric LS mean, together with: fluconazole): 0.498 µg·h/mL

CCS(=O)(=O)N1CC(CC#N)(n2cc(-c3ncnc4[nH]ccc34)cn2)C1
AUC(0-inf) (healthy Chinese human subjects, plasma; oral, 2 mg, single dose, mean): 0.14 µg·h/mL

CO[C@H]1C[C@@H]2CC[C@@H](C)[C@@](O)(O2)C(=O)C(=O)N2CCCC[C@H]2C(=O)O[C@H]([C@H](C)C[C@@H]2CC[C@@H](O)[C@H](OC)C2)CC(=O)[C@H](C)/C=C(\C)[C@@H](O)[C@@H](OC)C(=O)[C@H](C)C[C@H](C)/C=C/C=C/C=C/1C
AUC(0-inf) (human, whole blood; oral, 20 mg, without grapefruit juice): 0.863 µg·h/mL

CO[C@H]1C[C@@H]2CC[C@@H](C)[C@@](O)(O2)C(=O)C(=O)N2CCCC[C@H]2C(=O)O[C@H]([C@H](C)C[C@@H]2CC[C@@H](OCCO)[C@H](OC)C2)CC(=O)[C@H](C)/C=C(\C)[C@@H](O)[C@@H](OC)C(=O)[C@H](C)C[C@H](C)/C=C/C=C/C=C/1C
AUC(0-inf) (human, plasma; oral, 30 mg, together with: sunitinib 50 mg daily): 1.75 µg·h/mL

CCCc1nn(C)c2c(=O)[nH]c(-c3cc(S(=O)(=O)N4CCN(C)CC4)ccc3OCC)nc12
AUC(0-inf) (human, male, plasma; oral, 50 mg, day 1): 0.541 µg·h/mL

C=C[C@@H]1C[C@]1(NC(=O)[C@@H]1C[C@@H]2CN1C(=O)[C@H](C(C)(C)C)NC(=O)O[C@@H]1C[C@H]1CCCCCc1nc3ccc(OC)cc3nc1O2)C(=O)NS(=O)(=O)C1CC1
AUC(0-inf) (healthy adult humans, plasma; oral, 100 mg, fixed-dose combination with elbasvir 50 mg, fasted): 0.573 µM·h

C=C(C)[C@@H]1CC[C@]2(NCCN3CCS(=O)(=O)CC3)CC[C@]3(C)[C@H](CC[C@@H]4[C@@]5(C)CC=C(C6=CC[C@@](CF)(C(=O)O)CC6)C(C)(C)[C@@H]5CC[C@]43C)[C@@H]12
AUC(0-inf) (healthy human volunteers, plasma; oral, 200 mg, tablet, high-fat state, mean): 39.1 µg·h/mL
